# Assay results from different studies.
# ± gives the spread as reported.
# Target: Fibroblast growth factor receptor 1 (FGFR1, Homo sapiens, UniProt P11362)
# Chain of UniProt P11362 (whole entry, looked up): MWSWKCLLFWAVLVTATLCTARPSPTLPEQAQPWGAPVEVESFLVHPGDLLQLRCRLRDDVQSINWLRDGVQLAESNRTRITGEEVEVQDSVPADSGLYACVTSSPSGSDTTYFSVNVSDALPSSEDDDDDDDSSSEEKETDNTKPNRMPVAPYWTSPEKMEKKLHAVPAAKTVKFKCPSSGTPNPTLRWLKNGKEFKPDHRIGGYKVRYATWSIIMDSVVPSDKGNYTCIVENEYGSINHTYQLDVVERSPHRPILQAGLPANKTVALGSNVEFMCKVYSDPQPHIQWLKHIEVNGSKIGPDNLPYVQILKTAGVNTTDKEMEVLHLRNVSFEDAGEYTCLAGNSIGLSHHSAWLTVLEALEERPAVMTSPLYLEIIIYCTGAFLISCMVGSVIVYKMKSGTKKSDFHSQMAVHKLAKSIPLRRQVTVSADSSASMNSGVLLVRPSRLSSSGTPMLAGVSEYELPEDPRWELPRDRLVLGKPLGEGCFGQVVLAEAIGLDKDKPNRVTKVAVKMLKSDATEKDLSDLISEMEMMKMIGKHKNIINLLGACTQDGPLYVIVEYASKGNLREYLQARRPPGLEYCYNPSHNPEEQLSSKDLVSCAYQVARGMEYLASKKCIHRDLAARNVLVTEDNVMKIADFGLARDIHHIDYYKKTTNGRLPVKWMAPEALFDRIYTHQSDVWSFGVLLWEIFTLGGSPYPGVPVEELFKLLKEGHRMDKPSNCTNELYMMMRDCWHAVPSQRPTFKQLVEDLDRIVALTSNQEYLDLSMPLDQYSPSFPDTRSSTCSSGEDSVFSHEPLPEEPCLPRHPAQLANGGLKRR
SMILES,test,setting,how to read,measurement,result
C=C(C)C(=O)Nc1ccc(-c2c(-c3ccc(Oc4cccc(C)n4)cc3)c3c(N)ncnc3n2C)cc1,"kinase activity, Caliper",,relative to: FGFR1 over 5,fold potency loss,40 fold
COc1cc(-c2cnc3nc2NCCCNS(=O)(=O)c2cccc(c2)N3)ccc1F,differential scanning fluorimetry,10 µM,higher = stronger binding,thermal shift ΔTm,3.3 K
Cc1cc(C)c2oc(-c3c4c(N)n[nH]c(=O)c4nn3-c3ccccc3)c(C)c2c1,"enzyme activity, inhibitor, ELISA",0.1 µM,,inhibition,16.8%
OC(c1cccc(Oc2ccccc2)c1)c1c[nH]c2ncc(C(F)(F)F)cc12 (stereo not shown),"enzyme activity, inhibitor",1 µM,,inhibition,34%
Cc1c(-c2c3c(N)n[nH]c(=O)c3nn2-c2ccccc2)oc2c(C)cccc12,"enzyme activity, inhibitor, ELISA",0.1 µM,,inhibition,17.8%
COc1cc(C(=O)NC2CCC(N3CCN(CC4CCC5(CCCC5)C4)CC3)CC2)c(F)cc1Nc1ncc2c(n1)N(C1CCCC1(F)F)CC(F)(F)C(=O)N2C (stereo not shown),"cell-free assay, TR-FRET",10 µM,,inhibition,0.87%
FC(F)(F)c1cnc2[nH]cc(Cc3cccc(Oc4ccccc4)c3)c2c1,"enzyme activity, inhibitor",0.1 µM,,inhibition,21%
CNc1ncc2cc(-c3cc(OC)cc(OC)c3Cl)c(=O)n(CCc3ccc(NC(=O)/C(C#N)=C/C(C)(C)NC)cc3)c2n1,fluorescence competition,,,residence time,6600 ± 2460 min
Cc1c(-c2c3c(N)n[nH]c(=O)c3nn2-c2ccccc2)oc2ccc(F)cc12,"enzyme activity, inhibitor, ELISA",0.1 µM,,inhibition,55.7%
FC(F)(F)c1cccc(Cc2c[nH]c3ncc(C(F)(F)F)cc23)c1,"enzyme activity, inhibitor",1 µM,,inhibition,19%

# Repeated from above:
SMILES,test,setting,how to read,measurement,result
OC(c1cccc(Oc2ccccc2)c1)c1c[nH]c2ncc(C(F)(F)F)cc12 (stereo not shown),"enzyme activity, inhibitor",1 µM,,inhibition,34%
